Experimental data of several laboratories.
Each line is one published result; not all experiments were run side by side. ± marks the error that the study gave.

SMILES	cell line	test	setting	scale	measurement	value
C/C=C(/C)C(=O)O[C@H]1C(C)=C2[C@H]([C@@H]1OC(=O)CCCCCCC)[C@@](C)(OC(C)=O)C[C@H](OC(=O)CCC)[C@@]1(O)[C@H]2OC(=O)[C@@]1(C)O	HEK-293T	RNA-seq GSEA, refers to: Hallmark MYC targets V2	500 nM, 6 h	direction not given	normalized enrichment score	-0.94
COc1cc(CCC[P+](c2ccccc2)(c2ccccc2)c2ccccc2)c(OC)c2c1OCO2.[I-]	UO-31	SRB			GI50	-4.97 log M
CC(C)C[C@H](NC(=O)[C@H](C)NC(=O)[C@H](Cc1c[nH]cn1)NC(=O)[C@H](C)NC(=O)[C@H](CC(C)C)NC(=O)[C@H](Cc1c[nH]cn1)NC(=O)[C@H](CC(C)C)NC(=O)[C@H](Cc1c[nH]c2ccccc12)NC(=O)[C@H](CC(C)C)NC(=O)[C@H](CC(C)C)NC(=O)[C@H](C)NC(=O)[C@H](CC(C)C)NC(=O)[C@H](CC(C)C)NC(=O)[C@H](Cc1c[nH]cn1)NC(=O)[C@H](CC(C)C)NC(=O)[C@H](C)NC(=O)[C@H](Cc1c[nH]cn1)NC(=O)[C@H](C)NC(=O)[C@H](CC(C)C)NC(=O)[C@H](CCCCN)NC(=O)[C@@H](N)CCCCN)C(=O)N[C@@H](CCCCN)C(=O)N[C@@H](CCCCN)C(=O)N[C@@H](C)C(=O)N[C@@H](CS)C(N)=O	human red blood cells		pH 5.5	reference: Triton X-100	EC50	20 µM
CN1C(=O)[C@@]23C[C@]4([C@]56C[C@@]78SS[C@@](CO)(C(=O)N7[C@H]5Nc5ccccc56)N(C)C8=O)c5ccccc5N[C@@H]4N2C(=O)[C@]1(CO)SS3	HBL-1		1 µM, 120 h		viability	0.324%
CC[C@H](C)[C@H](NC(=O)[C@H](CCCCN)NC(=O)[C@H](CCCCN)NC(=O)[C@H](Cc1ccccc1)NC(=O)[C@H](CC(C)C)NC(=O)[C@H](CCCCN)NC(=O)[C@H](Cc1c[nH]c2ccccc12)NC(=O)[C@@H](N)CCCCN)C(=O)N[C@@H](Cc1ccccc1)C(=O)N[C@@H](CCCCN)C(=O)N[C@@H](CCCNC(=N)N)C(=O)N[C@H](C(=O)N[C@H](C(=O)N[C@@H](CCC(N)=O)C(=O)N[C@@H](CCCNC(=N)N)C(=O)N[C@H](C(=O)N[C@@H](CCCCN)C(=O)N[C@@H](CC(=O)O)C(=O)N[C@@H](Cc1ccccc1)C(=O)N[C@@H](CC(C)C)C(=O)N[C@@H](CCCNC(=N)N)C(=O)N[C@@H](CS)C(N)=O)[C@@H](C)CC)C(C)C)[C@@H](C)CC	human red blood cells		pH 5.5	reference: Triton X-100	EC50	13 µM
COc1ccc2c(c1)[nH]c1c(C)nccc12	DU-145	bisulfite pyrosequencing, refers to: RASSF1A promoter CpG site 16	10 µM, 16 h		CpG methylation	87.5%
Oc1ccc(C(c2ccc(O)cc2)(C(F)(F)F)C(F)(F)F)cc1	HepG2 spheroids	Hoechst flow cytometry	1 µM, 96 h		G1 phase cells	75.3 ± 6.83%
O=C1N(Cc2ccccc2Cl)c2ccccc2C12NN=C(c1ccccc1)S2 (stereo not drawn)	MDA-MB-468	gene expression array, refers to: WDR75 mRNA	10 µM, 12 h	reference: untreated, down	fold change	1.76
C[C@]12CC[C@H]3[C@@H](CC[C@]4(O)C[C@@H](O)CC[C@]34C=O)[C@@]1(O)CC[C@@H]2C1=CC(=O)OC1	human iPSC-derived cardiomyocytes	MyBP-C/MYH ratio, plate-normalised SD score	concentration not given, primary screen	direction not given	activity score	4.4
Nc1ncnc2c1ncn2[C@@H]1O[C@@H]2COP(=O)(O)O[C@H]3[C@@H](O)[C@H](n4cnc5c(=O)[nH]cnc54)O[C@@H]3COP(=O)(O)O[C@H]2[C@H]1O	HFF-1	RNA sequencing, refers to: Reactome R-HSA-3560801	downregulated pathway	reference: Zika virus alone	pathway fold enrichment	14.2
O=C1C2CC=CCC2C(=O)N1SC(Cl)(Cl)Cl (stereo not drawn)	human iPSC-derived cardiomyocytes	MyBP-C/MYH ratio, plate-normalised SD score	concentration not given, primary screen	direction not given	activity score	3.7
CCN(CC)c1ccc(C=NNC(=O)CSc2nc3ccccc3c(=O)n2Cc2ccc(S(N)(=O)=O)cc2)c(O)c1	NCI-H522	NCI five-dose screen			CC50	> 100 µM
Nc1ncc(-c2nc(N3CCOCC3)nc(N3CCOCC3)n2)c(C(F)F)n1	ASPC1		72 h		GI50	0.306 µM
COc1c(CCC[P+](c2ccccc2)(c2ccccc2)c2ccccc2)cc2c(c1OC)OCO2.[I-]	HCT-15	SRB			GI50	-4.83 log M
CN1CCN(C2(CNC3CCN(c4cccc(-c5cc6cc(F)ccc6[nH]5)c4)CC3)CCC2)CC1	U-251				TGI	3.33 µM

For quick reference, copied from above:
SMILES	cell line	test	setting	scale	measurement	value
Nc1ncnc2c1ncn2[C@@H]1O[C@@H]2COP(=O)(O)O[C@H]3[C@@H](O)[C@H](n4cnc5c(=O)[nH]cnc54)O[C@@H]3COP(=O)(O)O[C@H]2[C@H]1O	HFF-1	RNA sequencing, refers to: Reactome R-HSA-3560801	downregulated pathway	reference: Zika virus alone	pathway fold enrichment	14.2
